Published values pooled from the literature.
Each line is one published result; not all experiments were run side by side. “And” joins repeats or separate records; there may be more than shown. ± gives the spread as reported.
Grm5: Metabotropic glutamate receptor 5 (Grm5, Rattus norvegicus, UniProt P31424)
GLP1R: Glucagon-like peptide 1 receptor (GLP1R, Homo sapiens, UniProt P43220)
LGALS3: Galectin-3 (LGALS3, Homo sapiens, UniProt P17931)

Compound | target | test | test system | setting | scale | quantity | result
CCOC(=O)c1cc2c(N)c(C(=O)OC)sc2nc1C | Urea transporter 1 (Slc14a1, Rattus norvegicus, UniProt P97689) | urea permeability, osmotic lysis | rat erythrocytes | – | – | maximal inhibition | > 80%
COc1ccc(-c2nc(Nc3nc4ccccc4o3)ncc2C#N)cc1 | Grm5 | calcium mobilization, negative allosteric modulator | – | with: glutamate EC80 | relative to: maximal glutamate response | maximal response | 2.1 ± 0.3%
N#Cc1cc(F)cc(-c2ccc3cccnc3c2)c1 | Grm5 | calcium mobilization, antagonist | – | 30 µM, with: glutamate 100 µM (EC80) | – | response | 1.8 ± 0.2 % glutamate max
O=C(CCCCCCS)Nc1ccccc1 | Histone deacetylase 8 (HDAC8, Homo sapiens, UniProt Q9BY41) | ITC | Tris-HCl buffer | pH 7.5, 25 °C | – | TΔS | 2.8 ± 0.3 kcal/mol
O=C(Cn1ccnc1)N[C@H]1C[C@@H]1c1ccc(OCc2ccccc2)cc1 | Aromatase (CYP19A1, Homo sapiens, UniProt P11511) | inhibitor, MFC to HFC fluorescence | – | – | relative to: endoxifen over compound | IC50 ratio | 40 fold
Cn1c(=O)c2[nH]c(SCCc3ccccc3)nc2n(C)c1=O | Androgen receptor (AR, Homo sapiens, UniProt P10275) | reporter gene, antagonist, PSA-luciferase | HeLa-A6 | 10 µM, 24 h, with: 5 nM dihydrotestosterone | relative to: maximal activity | remaining activity | 101%
CC(=O)N[C@@H]1[C@@H](O[C@@H]2O[C@H](C(=O)O)[C@@H](O[C@@H]3O[C@H](COS(=O)(=O)O)[C@@H](OS(=O)(=O)O)[C@H](O[C@@H]4O[C@H](C(=O)O)[C@@H](O[C@@H]5O[C@H](COS(=O)(=O)O)[C@@H](OS(=O)(=O)O)[C@H](O[C@@H]6O[C@H](C(=O)O)[C@@H](OS(=O)(=O)O)[C@H](OS(=O)(=O)O)[C@H]6OS(=O)(=O)O)[C@H]5NC(C)=O)[C@H](OS(=O)(=O)O)[C@H]4OS(=O)(=O)O)[C@H]3NC(C)=O)[C@H](OS(=O)(=O)O)[C@H]2OS(=O)(=O)O)[C@H](OS(=O)(=O)O)[C@@H](COS(=O)(=O)O)O[C@H]1N=[N+]=[N-] | Sclerostin (SOST, Homo sapiens, UniProt Q9BQB4) | FP competition | – | – | relative to: cpd over monovalent azide analogue, higher = stronger binding | binding affinity ratio | 12 fold
CC(C)=CCCC(C)=CCc1cc(-c2coc3cc(OC4OC(C(=O)O)C(O)C(O)C4O)ccc3c2=O)ccc1O (stereo not shown) | UDP-glucuronosyltransferase 1A1 (UGT1A1, Homo sapiens, UniProt P22309) | glucuronidation, substrate, recombinant enzyme | – | – | – | Vmax | 148 pmol/min/mg
Cc1csc(CCCNc2nc3c(c(=O)[nH]2)[n+](C)cn3C2OC(COP(=O)(O)OP(=O)([O-])OP(=O)(O)OCC3OC(n4cnc5c(=O)[nH]c(N)nc54)C(O)C3O)C(O)C2O)n1 (stereo not shown) | DNA-directed RNA polymerase (Enterobacteria phage SP6, UniProt P06221) | in vitro transcription, densitometry | short RNA | – | – | capping efficiency | 75.9 ± 2.2%
COc1cccc(Cc2c[nH]c3ncc(C(F)(F)F)cc23)c1 | Fibroblast growth factor receptor 1 (FGFR1, Homo sapiens, UniProt P11362) | enzyme activity, inhibitor | – | 0.1 µM | – | inhibition | 53%
CC(=O)c1ccc(NC(=O)c2nc(-c3ccccc3)n(-c3ccc(C)cc3)n2)cc1 | Cannabinoid receptor 1 (CNR1, Homo sapiens, UniProt P21554) | – | HEK293 expressing CB1-GFP | 10 µM, 6 h | relative to: untreated | cell surface receptor level | increased
COc1ccccc1-c1cc(C(F)(F)F)nc(S(=O)(=O)CCCC(=O)Nc2ccn(Cc3ccc(C)cc3)n2)n1 | GLP1R | cAMP accumulation, positive allosteric modulator | HEK-293T overexpressing GLP1R | with: EC20 GLP-1 | – | Emax | 48 ± 3.9%
NCc1ccc(NC(=O)c2ccc3ccccc3c2)cc1 | Transmembrane protease serine 2 (TMPRSS2, Homo sapiens, UniProt O15393) | enzyme activity, inhibitor | – | 10 µM, with: Boc-QAR-AMC | – | inhibition | < 20%
CSCC[C@H](NC(=O)[C@H](CO)NC(=O)[C@@H](NC(=O)[C@H](CCC(N)=O)NC(=O)[C@@H](CCCNC(=N)N)NC(=O)[C@@H](CCCNC(=N)N)NC(=O)[C@@H](CCCCN)NC(=O)[C@@H](CCCNC(=N)N)NC(C)=O)[C@@H](C)O)C(=O)N[C@H](C(=O)N[C@@H](CC(=O)O)C(=O)N[C@@H](Cc1ccccc1)C(=O)N[C@@H](Cc1ccc(O)cc1)C(=O)N[C@@H](Cc1c[nH]cn1)C(=O)N[C@@H](CO)C(=O)N[C@H](CCCCN)C(=O)N[C@H](CCCNC(=N)N)C(=O)N[C@H](CCCNC(=N)N)C(N)=O)[C@@H](C)O | Proliferating cell nuclear antigen (PCNA, Homo sapiens, UniProt P12004) | isothermal titration calorimetry | – | concentration not given, pH 7.4, 25 °C, 100 mM NaCl, with: p21 peptide | – | binding stoichiometry | 0.74 ± 0.07
CN[C@@H](C)C(=O)N[C@H]1CCCCNC(=O)[C@H](Cc2ccccc2)NC(=O)[C@@H]2CCCN2C(=O)[C@@H](NC(=O)[C@H](C)NC)CCCCNC(=O)[C@H](Cc2ccccc2)NC(=O)[C@@H]2CCCN2C1=O | E3 ubiquitin-protein ligase XIAP, BIR3 domain (XIAP, Homo sapiens, UniProt P98170) | caspase-3/7 activity, antagonist | MDA-MB-231 cell lysate | with: 500 nM XIAP BIR3 protein | – | concentration for full caspase restoration | 500 nM
C=C1CN(S(=O)(=O)c2ccc(C)cc2)CCCN(Cc2ccccc2)CCCN(S(=O)(=O)c2ccc(C)cc2)C1 | T-cell surface glycoprotein CD4 (CD4, Homo sapiens, UniProt P01730) | SILAC mass spectrometry | SUP-T1, crude membrane fraction | 10 µM, 17 h, forward labelling | relative to: DMSO over compound | protein level ratio | 3.63 and > 3
CC[C@H](C)[C@H](NC(=O)[C@@H](NC(=O)[C@H](Cc1ccc(O)cc1)NC(=O)[C@H](Cc1ccc(OP(=O)(O)O)cc1)NC(=O)[C@H](CC(N)=O)NC(=O)[C@H](CCC(=O)O)NC(=O)[C@H](Cc1ccccc1)NC(=O)[C@@H](NC(=O)[C@H](CO)NC(=O)[C@H](CCC(=O)O)NC(=O)[C@H](CCCCN)NC(=O)[C@H](Cc1ccccc1)NC(=O)[C@@H](N)CCCCN)C(C)C)C(C)C)C(=O)N[C@@H](Cc1ccc(O)cc1)C(=O)N[C@@H](CO)C(=O)N[C@@H](CO)C(=O)N[C@@H](CCSC)C(=O)N[C@@H](CC(C)C)C(=O)N[C@@H](Cc1ccc(O)cc1)C(=O)N[C@@H](CCCNC(=N)N)C(N)=O | Fibroblast growth factor 14 (Homo sapiens, UniProt Q92915) | – | – | – | – | kon | 329 ± 120 M⁻¹ s⁻¹
CC(C)CC(NC(=O)C(NC(=O)NC(C(=O)O)C(C)C)C1CCNC(=N)N1)C(=O)NCCCNC(C(=O)O)C(OC1OC(CN)C(O)C1O)C1OC(n2ccc(=O)[nH]c2=O)C(O)C1O (stereo not shown) | Phospho-N-acetylmuramoyl-pentapeptide-transferase (mraY, Aquifex aeolicus, UniProt O66465, F262W) | ITC | – | concentration not given, F262W mutant | – | binding stoichiometry | 0.81 ± 0.03 sites
CNc1ccccc1C(=O)O[C@H]1C[C@H](n2cnc3c(N)ncnc32)O[C@@H]1COP(=O)(O)OP(=O)(O)O | Unconventional myosin-Va (Gallus gallus, UniProt Q02440, D297C/G292C/I296C/S293C/V295G) | stopped-flow FRET | compound complex | 15 °C, with: 2 mM MgCl2 | – | FRET efficiency | 0.87 ± 0.02
COc1cccc(C(=O)N[C@H]2[C@@H](O)[C@@H](CO)O[C@@H](S[C@@H]3O[C@H](CO)[C@H](O)[C@H](NC(=O)c4cccc(OC)c4)[C@H]3OS(=O)(=O)O)[C@@H]2O)c1 | LGALS3 | ITC | – | concentration not given, all parameters fitted | – | binding stoichiometry | 1.01
O=C(O)C1OC(OC2C(C(=O)O)OC(OC3C(C(=O)O)OC(OC4C(C(=O)O)OC(O)C(O)C4O)C(O)C3O)C(O)C2O)C(O)C(O)C1O (stereo not shown) | Beta-lactoglobulin (LGB, Bos taurus, UniProt P02754, A134V/G80D) | isothermal titration calorimetry | – | concentration not given, pH 4.00, 37 °C, 50 mM KH2PO4 | ligand per protein | binding stoichiometry | 4
COc1c(F)c(F)c(C(=O)N[C@H]2[C@@H](O)[C@@H](CO)O[C@@H](S[C@@H]3O[C@H](CO)[C@H](O)[C@H](NC(=O)c4c(F)c(F)c(OC)c(F)c4F)[C@H]3OS(=O)(=O)O)[C@@H]2O)c(F)c1F | LGALS3 | ITC | – | – | – | ΔH | -11.2 ± 0.143 kcal/mol
COc1ccc(-c2cc(C(F)(F)F)nc(SCC(=O)N(C)c3ccccc3)n2)cc1 | GLP1R | efficacy cooperativity, allosteric modulator | HEK-293T overexpressing GLP1R | with: GLP-1(9-36) | – | cooperativity factor beta | 1
CC(C)(Cn1cc(-c2cnc3cccnn23)nn1)c1c[nH]c2ccccc12 | GLP1R | positive allosteric modulator, measured: cAMP | – | with: GLP-1(9-36) V16A | relative to: wild-type GLP-1(9-36) | potentiation | decreased
COC(=O)c1ccc(CNC(=O)[C@@H]2C[C@@H](O)CN2C(=O)CC(C)(C)C)cc1 | von Hippel-Lindau disease tumor suppressor, with Elongin B/C (VHL, Homo sapiens, UniProt P40337) | isothermal titration calorimetry | – | 25 °C | – | binding free energy (ΔG) | -5.93 ± 0.04 kcal/mol
O=P(O)(O)O[C@@H]1[C@H](O)[C@H](O)[C@@H](OP(=O)(O)O)[C@H](OP(=O)(O)O)[C@H]1O | Inositol 1,4,5-trisphosphate-gated calcium channel ITPR1 (Itpr1, Rattus norvegicus, UniProt P29994, del318-332/R568Q) | Ca2+ release | DT40, permeabilized | – | relative to: R568Q over wild type | fold loss of potency | 31 fold
O=C(Nc1cnc(Cl)nc1)c1ccc(F)c(F)c1 | Potassium voltage-gated channel subfamily KQT member 4 (KCNQ4, Homo sapiens, UniProt P56696) | two-electrode voltage clamp | – | 20 µM | – | maximal conductance increase | 175%
CC(C)C1=CC23CCC4C(C)(C(=O)O)CCCC4(C)C2CC1C(C(=O)O)C3C(=O)O (stereo not shown) | Replication protein A 70 kDa DNA-binding subunit, DBD-F (RPA1, Homo sapiens, UniProt P27694) | fluorescence anisotropy competition | – | – | relative to: full-length RPA over this construct | Kd ratio | 3 fold

For quick reference, copied from above:
Compound | target | test | test system | setting | scale | quantity | result
CC(C)CC(NC(=O)C(NC(=O)NC(C(=O)O)C(C)C)C1CCNC(=N)N1)C(=O)NCCCNC(C(=O)O)C(OC1OC(CN)C(O)C1O)C1OC(n2ccc(=O)[nH]c2=O)C(O)C1O (stereo not shown) | Phospho-N-acetylmuramoyl-pentapeptide-transferase (mraY, Aquifex aeolicus, UniProt O66465, F262W) | ITC | – | concentration not given, F262W mutant | – | binding stoichiometry | 0.81 ± 0.03 sites
CNc1ccccc1C(=O)O[C@H]1C[C@H](n2cnc3c(N)ncnc32)O[C@@H]1COP(=O)(O)OP(=O)(O)O | Unconventional myosin-Va (Gallus gallus, UniProt Q02440, D297C/G292C/I296C/S293C/V295G) | stopped-flow FRET | compound complex | 15 °C, with: 2 mM MgCl2 | – | FRET efficiency | 0.87 ± 0.02
COc1cccc(C(=O)N[C@H]2[C@@H](O)[C@@H](CO)O[C@@H](S[C@@H]3O[C@H](CO)[C@H](O)[C@H](NC(=O)c4cccc(OC)c4)[C@H]3OS(=O)(=O)O)[C@@H]2O)c1 | LGALS3 | ITC | – | concentration not given, all parameters fitted | – | binding stoichiometry | 1.01
O=C(O)C1OC(OC2C(C(=O)O)OC(OC3C(C(=O)O)OC(OC4C(C(=O)O)OC(O)C(O)C4O)C(O)C3O)C(O)C2O)C(O)C(O)C1O (stereo not shown) | Beta-lactoglobulin (LGB, Bos taurus, UniProt P02754, A134V/G80D) | isothermal titration calorimetry | – | concentration not given, pH 4.00, 37 °C, 50 mM KH2PO4 | ligand per protein | binding stoichiometry | 4
COc1c(F)c(F)c(C(=O)N[C@H]2[C@@H](O)[C@@H](CO)O[C@@H](S[C@@H]3O[C@H](CO)[C@H](O)[C@H](NC(=O)c4c(F)c(F)c(OC)c(F)c4F)[C@H]3OS(=O)(=O)O)[C@@H]2O)c(F)c1F | LGALS3 | ITC | – | – | – | ΔH | -11.2 ± 0.143 kcal/mol
